Measurements pooled from the literature.
Parts stem from different laboratories: compare values within a part only. Positions count from the first letter of the parent shown.

Sample 1
Target: CCND2, cyclin fold, Cln2 fusion (human)
Technique: yeast growth competition, sequencing
Sample: yeast
Setting: weak parent motif
Baseline: not given
Reading: higher = stronger binding
Endpoint: normalised enrichment score
Parent: SLBP docking peptide (human); ARYKRKLLINDFG; partner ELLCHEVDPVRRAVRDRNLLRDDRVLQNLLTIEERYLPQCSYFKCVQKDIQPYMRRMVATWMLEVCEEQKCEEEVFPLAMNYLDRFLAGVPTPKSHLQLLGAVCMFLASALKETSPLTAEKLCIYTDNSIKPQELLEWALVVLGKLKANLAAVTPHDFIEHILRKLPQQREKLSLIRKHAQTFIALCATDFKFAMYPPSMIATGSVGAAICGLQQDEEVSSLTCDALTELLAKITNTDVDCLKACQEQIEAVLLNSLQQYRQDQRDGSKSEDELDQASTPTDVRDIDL
PRYKRKLLINDFG [A1P]: 0.0927
ARYKRKLGINDFG [L8G]: 0.168
ARYKRKLLKNDFG [I9K]: 0.316
ARYSRKLLINDFG [K4S]: -0.0667
ARYKRKLLINSFG [D11S]: 0.0619
ARYKRKLFINDFG [L8F]: -0.0634
ARYKRKLRINDFG [L8R]: -0.06
ARYKRTLLINDFG [K6T]: 0.336
ARGKRKLLINDFG [Y3G]: -0.00227
ARSKRKLLINDFG [Y3S]: 0.577
ARYKRKLLIVDFG [N10V]: -0.007
ARYQRKLLINDFG [K4Q]: 0.296
ARYKRKTLINDFG [L7T]: -0.182
ARYKRKLLIHDFG [N10H]: -0.156
ARYKRHLLINDFG [K6H]: -0.0835
ARYKRKLLPNDFG [I9P]: 0.382
FRYKRKLLINDFG [A1F]: -0.0305
CRYKRKLLINDFG [A1C]: -0.216
SRYKRKLLINDFG [A1S]: 0.321
ARYKRKLLINWFG [D11W]: -0.328
ARYKIKLLINDFG [R5I]: 0.0878
ARYTRKLLINDFG [K4T]: -0.0976
ARYKRKPLINDFG [L7P]: 0.329
ARYKRKLLIFDFG [N10F]: 0.0706
ARYKRKLLINDFM [G13M]: 0.707

Sample 2
Target: RING finger protein unkempt homolog, zinc fingers 1-6, GST-SBP tag (UNK, Homo sapiens, UniProt Q9C0B0, residues 30-357)
Technique: RNA Bind-n-Seq
Molecule type: RNA
Sample: in vitro
Concentration: not given
Setting: RNA with constant flanks, human-mouse chimeric sites, ends assumed
Baseline: input RNA pool
Reading: higher = stronger binding
Endpoint: bound/input enrichment
Residues (chain): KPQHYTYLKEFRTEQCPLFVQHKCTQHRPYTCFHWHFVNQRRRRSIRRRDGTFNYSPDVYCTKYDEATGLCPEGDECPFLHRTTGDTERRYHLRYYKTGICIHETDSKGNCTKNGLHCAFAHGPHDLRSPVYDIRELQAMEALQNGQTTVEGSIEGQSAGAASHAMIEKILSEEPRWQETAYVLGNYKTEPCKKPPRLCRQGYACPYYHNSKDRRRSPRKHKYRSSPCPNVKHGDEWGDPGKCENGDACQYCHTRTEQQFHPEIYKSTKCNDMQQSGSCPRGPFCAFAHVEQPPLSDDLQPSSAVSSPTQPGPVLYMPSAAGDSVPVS
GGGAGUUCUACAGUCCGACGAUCUUGAAAACAAACUGAUUUAAGUUUGAGUAUCACAAUGUUAGCUUUCUAAUUCCAUAAAAGUACUUGGUACAGUUUCUUUAUAAUCUGACAUCACCCCAGCGCCAUUUGUAAAGAGCAACUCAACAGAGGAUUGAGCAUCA: 0.695 ratio
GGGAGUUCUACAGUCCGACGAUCGGACCAUAAUCAUGGAGGACAUAAUGCAGCUCCCCAAAGCGCGCGUCAACGCCGGCAUGUUACCACAGUAUAUCGACCGGCCCGUGUGCUUCGUGGGGAAGCUGGAAAAGAUUCAUCCCACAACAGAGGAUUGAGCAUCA: 0.0801 ratio
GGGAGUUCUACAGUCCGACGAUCAGAGAAAUGAGAAAGAAUCUCACACAAGAAGAGAUGCAAAGAAUGUCUACUAGAGUCCUUUUGGCGACUCUUUCCAUUCCUAUUACUCCUGAGCGAACGGAUAUUGCUCGACUUUUGGAUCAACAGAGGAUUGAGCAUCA: 0.105 ratio
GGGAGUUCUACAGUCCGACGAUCAGAGAUAAGACAUCCAGGAACAUGCGAGGCUCCCGGAUGAAUGGGUUUCCAAGUCCCACUCACAGCGCCCACUGUAGCUUCUACCGAACCAGAACCUUGCAGGCAUUGAGUAAUGAGAAGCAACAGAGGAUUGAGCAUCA: 0.0739 ratio
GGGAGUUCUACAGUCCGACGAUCCUGUGACCACAAGAUCCUACCUGAGUGGCAGCUGAAGUUGACUCCCUCUCCUUGCCUGAACCCCCCCCUUUUGUUCCCCCAUCCCCCAGUGUCGGCUGAGAUGUUGCCUCUGCACGGUUCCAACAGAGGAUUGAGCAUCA: 1.32 ratio
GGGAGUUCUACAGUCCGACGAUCAAAGAGAAACUAAAGCAACUAAUAGAGGAAGAGGAUUGGCAAAGAGAUUUCAUAGAGAAACUAGGAUUUAUUAGCAAACAUGAGUUAUAUUCCAGAGCGUCUCAGAAACCCCAGCCAAACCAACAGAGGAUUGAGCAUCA: 3.54 ratio
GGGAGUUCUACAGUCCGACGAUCCGCCUGGAUGAGGCGGGUGUCACAGAUGAAGUGCUAGAUUCUGCCAUGCAAGCCUUCCUUCUGGAGGUCAUUGUUAAGCAUGGGGAGCCGGCACCUUAUUUAUGUAACAAAGAUCCGUUUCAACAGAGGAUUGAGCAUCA: 0.0726 ratio
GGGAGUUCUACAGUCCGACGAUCAAUUUCCUGUCAUACUUUGUAGCAAGAGCCAUAGGUAUUACAGAGCACCUGGCCACAUUCUAGGUUUGUGUUAUUUCUCAGCUAUGGAUAUGAUCAAAUGAGAACACUGCUUAACUAAUGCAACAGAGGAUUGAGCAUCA: 0.392 ratio

Sample 3
Target: POU, POU domain (Salpingoeca helianthica)
Technique: Spec-seq
Molecule type: double-stranded DNA, one strand shown
Sample: in vitro
Concentration: not given
Setting: whole probe, mean of replicates
Baseline: not given
Reading: lower = stronger binding
Endpoint: relative binding energy
Constant ends, left off below: GAGTCGTCTCGTCAGCAC … CCGTAGAGCACTCAGGTC
Residues (chain): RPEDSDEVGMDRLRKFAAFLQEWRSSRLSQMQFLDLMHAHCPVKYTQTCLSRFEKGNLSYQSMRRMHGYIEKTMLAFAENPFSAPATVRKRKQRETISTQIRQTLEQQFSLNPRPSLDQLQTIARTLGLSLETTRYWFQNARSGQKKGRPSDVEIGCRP
AGGGTAAT: 0.958 ln ratio
ATGAGTAT: 1.15 ln ratio
ATGCATCA: 1.29 ln ratio
ATACGCAT: 1.21 ln ratio
GCCCTAAT: 0.594 ln ratio
ATGACCAT: 1.11 ln ratio
CCAGTAAT: 0.766 ln ratio
GGAGTAAT: 0.235 ln ratio
GCTATAAT: 0.208 ln ratio
TGTATAAT: 0.328 ln ratio
ATGCCAAT: 1.27 ln ratio
ATAGTTAT: -0.663 ln ratio
TTGGTAAT: 0.504 ln ratio
TGAATAAT: -0.0322 ln ratio
ATGCAGAG: 1.28 ln ratio
ATTCTCAT: 1.26 ln ratio
ATTCTAAT: 0.441 ln ratio

Sample 4
Target: RNA binding protein fox-1 homolog 2, RRM domain, GST-SBP tag (RBFOX2, Homo sapiens, UniProt O43251-10, residues 100-194)
Technique: RNA Bind-n-Seq
Molecule type: RNA
Sample: in vitro
Concentration: 365 nM
Setting: natural RNA segment, single round, ends assumed
Baseline: no-protein control
Reading: higher = stronger binding
Endpoint: RBNS enrichment (R)
Construct (chain): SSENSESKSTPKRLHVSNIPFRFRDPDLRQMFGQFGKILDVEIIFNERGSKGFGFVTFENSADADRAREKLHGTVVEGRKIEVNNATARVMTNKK
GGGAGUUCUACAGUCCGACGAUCCUCUCCGAAGCCCCUGGACCUGUUUCCUUGUCAUUUGACCCUCGUCUGUGCCCGCGGAGACCUCCUCUGACCAAGGGGCACUAGUAUGCCUUGCGCUAUCAUGACUGACUUGGAAUUCUCGGGUGCCAA: 0.293
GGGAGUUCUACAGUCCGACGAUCGAUAGAAAAAUCCUUGUUUAUUCUUCUUGCUGCCUGGCUUUAAUAAAUAUUUCAGAUGCCUCACAGUAAGUUCACUCCUUUCCAUACUGAGGAAACAAGAAAAGAAGAAGUGGAAUUCUCGGGUGCCAA: 0.268
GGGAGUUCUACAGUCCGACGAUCAACUAAGAACUUUCUGGAGCCUGGUGCCCUACUACCUUCCUGCCUCAGAAGAGCUCAUGUCCUGGGACGGUGGUGCUGGAGCCUGGGCGAGCCUUCCACUCUCCCACGGUUGGAAUUCUCGGGUGCCAA: 0.983
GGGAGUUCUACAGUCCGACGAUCGUAGUGCAGAAAGAAUCCAGGGAUGGGAGGGGAAGGGACGGAUGGGUGCUCAAUUGCUGCUCACGUCUGCUGCAACCUGAAGCUUGCAUCUCAGCCAGCAGAUCUGCUCCUGGAAUUCUCGGGUGCCAA: 0.43
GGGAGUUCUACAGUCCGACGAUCUGAAGAGACUUGUUUCCUUCUACUUUUAUGUGUCUCAGAAUAUUUUUGAGGCGAAGGCGUCUGUCUCUUGGCUAUUUUAACCUAAAAUAACAGUCUAGUUAUAUUCCCUCUGGAAUUCUCGGGUGCCAA: 0.232
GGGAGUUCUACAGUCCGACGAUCUAAAAGUUCACGGUAUGAGAGUUAGUGCUUCUUCCCAAUUUGACCGUUGUAUAUUUUUGGAAACGUUCUUUAGAAUACAUUUCUGCAUUAUUUGUAUGCUUCCCAGAGAAUGGAAUUCUCGGGUGCCAA: 1.18
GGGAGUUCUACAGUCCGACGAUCUUUCUUCUCGUUGGGACUAUGUUUGUGAACAUGAGCGUCAUAAGUUAUGUUUCAGAUUUUCAAAUUUAUUUAUACGUGUUAUAAUGAAUGCUUCUAUUUAAAGGGGAAAUUGGAAUUCUCGGGUGCCAA: 0.477
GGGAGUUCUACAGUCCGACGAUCAUGGACUUUCUUCCCCCUCACAAGGCUGGGGGCCUCCUGCUCUCGUCCCUGGCCCUCCCUGCACAGGGCAAAGCCAGUCUGGGCUCUGGCACACAGAGUUCAUGUUUGCGUGGAAUUCUCGGGUGCCAA: 1.97

Some of these lines once more (sample 1):
ARGKRKLLINDFG [Y3G]: -0.00227
ARSKRKLLINDFG [Y3S]: 0.577
ARYKRKLLIVDFG [N10V]: -0.007
ARYQRKLLINDFG [K4Q]: 0.296
